Published values from different studies.
Every numbered part comes from another study and shows a few of its results, in no order. Positions count from the first letter of the parent shown.
Sequence of UniProt P49760 (whole entry, looked up): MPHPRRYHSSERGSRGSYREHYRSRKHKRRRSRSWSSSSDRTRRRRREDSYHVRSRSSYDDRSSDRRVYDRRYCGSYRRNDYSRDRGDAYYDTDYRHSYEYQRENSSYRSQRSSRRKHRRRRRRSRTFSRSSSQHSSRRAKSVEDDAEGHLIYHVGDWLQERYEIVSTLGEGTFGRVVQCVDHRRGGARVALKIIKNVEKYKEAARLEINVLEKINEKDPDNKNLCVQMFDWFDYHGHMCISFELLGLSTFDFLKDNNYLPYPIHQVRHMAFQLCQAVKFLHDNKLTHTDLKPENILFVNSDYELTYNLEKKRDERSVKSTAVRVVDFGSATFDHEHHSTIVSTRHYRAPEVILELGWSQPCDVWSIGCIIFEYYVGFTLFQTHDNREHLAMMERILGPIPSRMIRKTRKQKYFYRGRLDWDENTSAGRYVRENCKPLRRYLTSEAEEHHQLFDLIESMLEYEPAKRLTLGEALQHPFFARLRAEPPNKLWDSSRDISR
Sequence of UniProt Q8IVH8 (whole entry, looked up): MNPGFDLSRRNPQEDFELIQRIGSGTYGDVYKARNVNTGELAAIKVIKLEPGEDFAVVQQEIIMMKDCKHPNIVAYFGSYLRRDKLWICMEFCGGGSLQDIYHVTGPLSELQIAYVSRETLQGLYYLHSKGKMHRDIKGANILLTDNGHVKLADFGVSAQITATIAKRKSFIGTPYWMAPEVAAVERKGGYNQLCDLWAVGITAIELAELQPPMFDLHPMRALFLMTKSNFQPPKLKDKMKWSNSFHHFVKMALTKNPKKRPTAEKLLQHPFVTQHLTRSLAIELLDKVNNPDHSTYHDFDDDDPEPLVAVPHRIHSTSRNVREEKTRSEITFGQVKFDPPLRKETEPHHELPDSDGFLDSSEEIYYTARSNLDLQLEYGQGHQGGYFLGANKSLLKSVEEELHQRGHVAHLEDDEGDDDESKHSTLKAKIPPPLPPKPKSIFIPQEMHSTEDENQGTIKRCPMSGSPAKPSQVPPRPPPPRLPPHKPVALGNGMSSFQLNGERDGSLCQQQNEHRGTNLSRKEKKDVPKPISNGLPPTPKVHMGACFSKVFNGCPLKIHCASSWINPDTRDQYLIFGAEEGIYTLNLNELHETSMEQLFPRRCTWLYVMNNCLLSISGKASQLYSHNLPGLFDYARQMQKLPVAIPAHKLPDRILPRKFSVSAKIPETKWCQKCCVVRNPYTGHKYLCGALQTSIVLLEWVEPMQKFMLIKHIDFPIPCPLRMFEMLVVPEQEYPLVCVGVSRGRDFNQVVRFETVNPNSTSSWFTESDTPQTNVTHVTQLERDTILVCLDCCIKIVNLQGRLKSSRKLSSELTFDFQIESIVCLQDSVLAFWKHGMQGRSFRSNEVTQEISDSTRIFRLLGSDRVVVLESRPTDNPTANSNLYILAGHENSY
Sequence of UniProt Q9UK32 (whole entry, looked up): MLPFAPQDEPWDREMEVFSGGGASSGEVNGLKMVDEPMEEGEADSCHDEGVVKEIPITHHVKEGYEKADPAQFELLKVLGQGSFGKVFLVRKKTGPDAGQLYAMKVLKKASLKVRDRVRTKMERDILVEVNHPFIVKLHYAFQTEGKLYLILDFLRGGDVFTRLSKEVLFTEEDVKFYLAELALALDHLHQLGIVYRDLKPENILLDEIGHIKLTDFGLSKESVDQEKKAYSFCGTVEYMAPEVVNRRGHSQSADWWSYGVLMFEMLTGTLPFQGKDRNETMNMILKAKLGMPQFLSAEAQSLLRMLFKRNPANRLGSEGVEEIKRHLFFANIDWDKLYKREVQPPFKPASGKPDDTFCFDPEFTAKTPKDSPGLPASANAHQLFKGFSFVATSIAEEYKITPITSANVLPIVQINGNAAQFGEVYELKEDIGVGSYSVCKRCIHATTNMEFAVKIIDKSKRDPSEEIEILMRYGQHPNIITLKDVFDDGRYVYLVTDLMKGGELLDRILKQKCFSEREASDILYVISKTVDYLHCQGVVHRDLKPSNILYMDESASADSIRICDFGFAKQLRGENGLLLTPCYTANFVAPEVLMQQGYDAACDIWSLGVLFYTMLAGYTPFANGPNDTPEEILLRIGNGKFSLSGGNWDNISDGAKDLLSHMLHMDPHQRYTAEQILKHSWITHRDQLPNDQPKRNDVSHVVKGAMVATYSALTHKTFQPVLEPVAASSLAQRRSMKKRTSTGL

Set 1
Target: ABI1, truncated, D143A, DHFR fusion (Arabidopsis thaliana)
Method: DHFR PCA, deep sequencing
Matrix: yeast
Setting: methotrexate growth selection, single substitutions
With: (+)-ABA 4.8 µM
Reference: wild-type fitted maximum
Reading: higher = stronger binding
Starting sequence: PYL1, truncated, DHFR fusion (Arabidopsis thaliana); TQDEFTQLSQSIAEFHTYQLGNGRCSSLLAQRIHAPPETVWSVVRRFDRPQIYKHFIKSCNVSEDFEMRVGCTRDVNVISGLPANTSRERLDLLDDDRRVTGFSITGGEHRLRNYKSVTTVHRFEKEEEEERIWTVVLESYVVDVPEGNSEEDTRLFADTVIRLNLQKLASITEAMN; partner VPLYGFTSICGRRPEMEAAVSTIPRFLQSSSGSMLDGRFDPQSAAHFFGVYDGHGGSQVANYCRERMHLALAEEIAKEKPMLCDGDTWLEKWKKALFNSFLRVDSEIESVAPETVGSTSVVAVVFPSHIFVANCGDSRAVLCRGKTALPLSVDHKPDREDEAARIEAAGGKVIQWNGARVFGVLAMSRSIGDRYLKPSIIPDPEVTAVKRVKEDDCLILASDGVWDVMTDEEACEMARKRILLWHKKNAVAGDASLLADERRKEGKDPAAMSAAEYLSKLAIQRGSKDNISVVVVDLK
Change	relative binding score
D96S	-5.69%
Q2R	71.1%
I79C	70.2%
S171I	67.1%
D97G	58.1%
S63C	72.7%
G71T	-1.35%
Q19P	76.9%

Set 2
Target: Ras GTPase-activating protein-binding protein 1, C-terminal RGG region (G3BP1, Homo sapiens, UniProt Q13283)
Sequence of UniProt Q13283 (whole entry, looked up): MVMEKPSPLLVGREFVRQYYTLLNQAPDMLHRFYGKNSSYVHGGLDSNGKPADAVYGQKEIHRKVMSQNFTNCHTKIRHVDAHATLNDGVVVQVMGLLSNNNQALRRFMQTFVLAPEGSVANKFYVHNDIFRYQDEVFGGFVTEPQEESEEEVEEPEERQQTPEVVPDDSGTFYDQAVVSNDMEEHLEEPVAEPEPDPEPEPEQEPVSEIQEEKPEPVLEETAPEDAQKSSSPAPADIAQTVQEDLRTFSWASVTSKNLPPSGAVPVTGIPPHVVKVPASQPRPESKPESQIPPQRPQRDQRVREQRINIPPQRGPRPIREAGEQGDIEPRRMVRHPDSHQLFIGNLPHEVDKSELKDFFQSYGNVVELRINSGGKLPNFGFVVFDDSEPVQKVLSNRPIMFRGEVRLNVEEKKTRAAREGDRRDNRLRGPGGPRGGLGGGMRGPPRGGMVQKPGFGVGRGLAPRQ
Method: RNA Bind-n-Seq
Molecule type: RNA
Matrix: in vitro
Concentration: 1 µM
Setting: whole 134-nt RNA, ends assumed
With: 150 mM KCl
Reference: input library
Reading: higher = stronger binding
All sequences stand within: GGGAGUUCUACAGUCCGACGAUC … UGGAAUUCUCGGGUGUCAAGG
Sequence	log2 enrichment
CAAGUCCUGUGCUACACAUCGUAUGUACCGAAUCGGUUUUUGGUUUGGUUUUUGGAAAGUAUUAUGUUACGCCGUUCGGAUCUGCACUUC	-1.66
CUCAAGUCCUGUGCUACACAUCGUAUGUACCGAAUCGGUUUGGUGGAAAAAGGAAAGUAUUAUGUUACGCCGUUCGGAUCUGCACUUCCA	-1.13
UGUGCUACACAUCGUAUGUACCGAAUCGGGGUUUUUUUGGGGUUUUUUUGGGGUUUUUUUGGGAAAGUAUUAUGUUACGCCGUUCGGAUC	-0.667
ACCAUGCAGGUGGGCAUCUUUGGGAAGUGGGGCAGGGGGGGGAUAGGGAGGGGGGUAACACUUUGGGAACAGGUGGUCCCAGGUCGUUUC	-0.975
AAGUCCUGUGCUACACAUCGUAUGUACCGAAUCGGAGGUUUUUUUGGAAAAAAAGGAAAGUAUUAUGUUACGCCGUUCGGAUCUGCACUU	-2.17
AAAUGGUAGUGUGCGGAGUUUUUUUUUCUUCCUUCUUUUAAAAAUGGUUGUUUAAGACUUUAACAAUGGGAACCCCUUGUGAGCAUGCUC	-1.73
CUGUGCUACACAUCGUAUGUACCGAAUCGGGAAAAAAAGGAAAAAAAGGGGAAAAAAAGGGAAAGUAUUAUGUUACGCCGUUCGGAUCUG	-1.58
CACAGACAACACGCACCCACACAGACACAGAGGGAAGGGGUUGGGAUGGGGACAGGGUGCACAAAAGGGCGGGGUAGGACCCCAGCCCCU	-0.245

Mixed results
SMILES	tested on	assay	test system	setting	measurement	value
CCCOc1ccc([C@@H]2[C@@H](C(=O)O)[C@H](c3ccc4c(c3)OCO4)CN2CC(=O)Nc2c(CC)cccc2CC)cc1	MAP4K3 (Homo sapiens, UniProt Q8IVH8)	cell-free assay, competition with immobilised ligand	–	1 µM	remaining binding	100%
CCC[C@@H]1NC(=O)CSC[C@@H](C(=O)OCC)N(C)C(=O)[C@H](CC(C)C)NC(=O)[C@@H](C)N(C)C(=O)[C@@H](CC(C)C)NC(=O)[C@H](C)N(C)C(=O)[C@@H]2CCCN2C(=O)[C@H](CC(C)C)NC(=O)CN(CCC)C1=O	–	–	hydrocarbon/water	–	logD	0.554
CN(C)C(=O)Cn1cc(-c2nc([C@@](C)(c3ccc(-c4cnc(N)nc4)cc3)C3CC3)no2)cn1	CLK2 (Homo sapiens, UniProt P49760)	cell-free assay, competition with immobilised ligand	–	1 µM	remaining binding	96%
Cc1nc(Cc2cccc(C(F)(F)F)c2)sc1-c1ccc(C(N)=O)nc1	Ribosomal protein S6 kinase alpha-6, C-terminal kinase domain (RPS6KA6, Homo sapiens, UniProt Q9UK32)	cell-free assay, competition with immobilised ligand	–	1 µM	remaining binding	100%
